Experimental data from different studies.
Lines come from different studies, so protocols differ.
EGFR T790M: Epidermal growth factor receptor (EGFR, Homo sapiens, UniProt P00533, T790M)
EGFR L858R/T790M: Epidermal growth factor receptor (EGFR, Homo sapiens, UniProt P00533, L858R/T790M)

CNC(=O)C1CCN(c2cc(C)c(F)cc2NC(=O)c2ccc(-c3cc(O)ccc3C)c(C)c2)CC1
remaining binding (EGFR T790M; binding, competition with immobilised ligand; 1 µM): 100%

CNC1C[S+]2CC[S+]3CC[S+](C1)[Ru-4]321([N]=C=S)[n]2c3ccc(OC)cc3c3c4c(c5cc(F)c[n+]1c5c32)C(=O)NC4=O (stereo not shown)
remaining binding (EGFR (Homo sapiens, UniProt P00533, L861Q); KinomeScan; 0.1 µM; reference: untreated): 84%

COc1c(Cl)cccc1Nc1c(-c2ccncc2C#C[C@@]2(C)CCCN2C(=O)/C=C/CN(C)C)[nH]c2c1C(=O)NCC2
remaining binding (EGFR T790M; cell-free assay, competition with immobilised ligand; 3 µM): 0.6%

CCN1CCN(Cc2ccc(C(=O)Nc3ccc(C)c(NCc4cnc5[nH]ccc5c4OC)c3)cc2C(F)(F)F)CC1
remaining binding (EGFR (Homo sapiens, UniProt P00533, G719C); binding, competition with immobilised ligand; 1 µM): 1.3%

C=CC(=O)N1CCc2ccc(-n3c(=O)ccc4cnc5ccc(-c6cnn(C)c6)cc5c43)cc21
remaining binding (EGFR L858R/T790M; KINOMEscan; 1 µM; reference: DMSO control): 72%

CCN1CCN(Cc2ccc(NC(=O)c3ccc(C)c(NC(=O)c4cncc(-c5cccs5)c4)c3)cc2C(F)(F)F)CC1
remaining binding (EGFR (Homo sapiens, UniProt P00533, L858R); binding, competition with immobilised ligand; 1 µM): 0.7%

Cc1ccc(-c2c(/C=C(\C#N)C(=O)NC(C)C)n(CCCO)c3ncnc(N)c23)cc1
remaining binding (EGFR (Homo sapiens, UniProt P00533, del746-750); cell-free assay, competition with immobilised ligand; 1 µM): 88%

CC(C)=CC1OC(C)(C)C2C=C3C(=O)C(Cl)=CC(O)C3C3C(O)C4OC4C(=O)C132 (stereo not shown)
remaining binding (EGFR (Homo sapiens, UniProt P00533, del747-750/T751S); cell-free assay, competition with immobilised ligand; 10 µM): 95%

C=CC(=O)N1CCCC(n2c(=O)c3ncccc3n(Cc3ccc(Oc4ccccc4)cc3)c2=O)C1 (stereo not shown)
remaining binding (EGFR L858R/T790M; cell-free assay, competition with immobilised ligand; 1 µM): 89%

Nc1ncc2c(n1)-c1c([nH]c3ccc(C4=CCOCC4)cc13)CCC2
remaining binding (EGFR L858R/T790M; binding, competition with immobilised ligand; 1 µM): 68%
